Values quoted from earlier work, collected from citations in different studies.
Numbers after ± are the reported error.

SMILES | cell line | assay | conditions | IC50 [µM]
Cc1cc2[nH]c(C(=O)Nc3ccccc3C)c(CN3CCOCC3)c2s1 | neonatal foreskin fibroblasts | viability |  | > 20
CC1=C(CO)C(=O)O[C@@H]([C@@H](C)[C@H]2CC[C@H]3[C@@H]4C[C@H]5O[C@]56[C@@H](O)C=CC(=O)[C@]6(CO)[C@H]4CC[C@]23C)C1 | Hs-578T | cell growth |  | 2.22
CCC1=C(O)c2c(oc(-c3cc4ccccc4s3)cc2=O)C(CC)(CC)C1=O | HepG2 | cell growth, SRB |  | 15.7
CC(C)(C)C1=CC(=NNC(=O)c2ccncc2)C=C(C(C)(C)C)C1=O | U2OS | cell viability |  | > 100
[Cl-].[Cl-].[Ru+2].c1ccc(-c2ccccn2)nc1.c1ccc(-c2ccccn2)nc1.c1cnc2c(c1)ccc1cccnc12 | B16-F10 |  | light irradiation | > 100
Cc1ccc(C(C)C)cc1.F[B-](F)(F)F.[Cl][Ru+].[Fe+2].c1cc[cH-]c1.c1ccc(P(c2ccccc2)N([c-]2cccc2)P(c2ccccc2)c2ccccc2)cc1 | A2780R platinum-resistant ovarian cancer | cell growth |  | 3.1
Nc1cc(C(F)F)c(-c2nc(N3CCOCC3)nc(N3CCOCC3)n2)cn1 | A2058 | inhibitor, refers to: PKB Ser473 phosphorylation |  | 0.102
CC[C@H](C)[C@@H]1NC(=O)[C@H](Cc2c[nH]c3ccccc23)NC(=O)[C@H](C)NC(=O)[C@H](C(C)C)NC(=O)[C@H](CC(C)C)NC(=O)[C@H](Cc2c[nH]c3ccccc23)NC1=O | MM1.S |  |  | 8
CCC1=C(O)c2c(oc(-c3cccc4ccccc34)cc2=O)C(CC)(CC)C1=O | HCT-8 | cell growth, SRB |  | 1.03
c1ccc(Cn2cc(COc3ccc(-c4nc5ccc(C6=NCCN6)cc5[nH]4)cc3)nn2)cc1 | A549 |  |  | 0.07
CC(=O)OC1C=CC(=O)C2(CO)C3CCC4(C)C(C(C)C5CC(C)=C(C)C(=O)O5)CCC4C3CC3OC132 (centres unmarked) | Hs-578T | cell growth |  | 0.43
Cc1ccc(C2C3=C(COC3=O)NC3=C2C(=O)c2ccccc2C3=O)cc1 (centres unmarked) | HEK293 cells | cell growth |  | > 20
Oc1cccc(-c2cccc(O)n2)n1.[Cl-].[Cl-].[Ru+2].c1cnc2c(c1)c1c(c3cccnc32)OCCO1.c1cnc2c(c1)c1c(c3cccnc32)OCCO1 | HeLa | cell viability | dark | 730
CCN(CC)c1ccc2c(c1)Oc1cc(N(CC)CC)ccc1C21c2ccccc2C(=O)N1N=Cc1ccnc(-c2cc(C)ccn2)c1.Cc1c(C)c(-c2ccc(-c3ccccc3)cc2)[c-](C)c1C.F[P-](F)(F)(F)(F)F.[Cl-].[Ir+3] | A549 cancer cells |  |  | 4.3 ± 0.2
CC1=C(COC2OC(CO)C(OC3OC(C)C(O)C(O)C3O)C(O)C2O)C(=O)OC(C(C)C2CCC3C4CC5OC56C(O)C=CC(=O)C6(C)C4CCC23C)C1 (centres unmarked) | Hs-578T | cell growth |  | 11.1
CN(CCOCCOCCOCCNc1cccc2c1C(=O)N(C1CCC(=O)NC1=O)C2=O)CC[C@H](CSc1ccccc1)Nc1ccc(S(=O)(=O)NC(=O)c2ccc(N3CCN(CC4=C(c5ccc(Cl)cc5)CCC(C)(C)C4)CC3)cc2)cc1S(=O)(=O)C(F)(F)F (some centres unmarked) | NCI-H146 |  |  | 0.025
CC(=O)OC1C2C3CCC(C(C)(O)C4CC(C)=C(C)C(=O)O4)C3(C)CCC2C2(C)C(=O)C=CC(O)C23OC13 (centres unmarked) | KB | cell growth |  | 0.85
O=C1OCC2=C1C(c1cccc([N+](=O)[O-])c1)C1=C(N2)C(=O)c2ccccc2C1=O (centres unmarked) | SK-LU-1 cells | cell growth |  | < 0.039
C=CCc1cccc2c1O[C@H](c1ccc(OCc3ccccc3)c(I)c1)[C@@](Cl)([N+](=O)[O-])C2=O | U-937 |  |  | 10
O=C(/C=C/c1ccc(O)c(O)c1)NCCc1ccc(O)cc1 | RAW264.7 | nitric oxide production | 24 h, added: LPS 100 ng/mL | 12.8 ± 1.61

Some of these lines once more:
SMILES | cell line | assay | conditions | IC50 [µM]
c1ccc(Cn2cc(COc3ccc(-c4nc5ccc(C6=NCCN6)cc5[nH]4)cc3)nn2)cc1 | A549 |  |  | 0.07
CCC1=C(O)c2c(oc(-c3cc4ccccc4s3)cc2=O)C(CC)(CC)C1=O | HepG2 | cell growth, SRB |  | 15.7
[Cl-].[Cl-].[Ru+2].c1ccc(-c2ccccn2)nc1.c1ccc(-c2ccccn2)nc1.c1cnc2c(c1)ccc1cccnc12 | B16-F10 |  | light irradiation | > 100
